Experimental data from different studies.
A part holds a random share of what one study measured. Positions count from the first letter of the parent shown.

Set 1 — technique: protein-binding microarray; molecule type: double-stranded DNA, one strand shown; sample: in vitro; tested at: not given; direction: higher = stronger binding; measurement: E-score
Target: Hepatocyte nuclear factor 3-beta, forkhead domain (FOXA2, Homo sapiens, UniProt Q9Y261, residues 142-269)
Notes: k-mer, scored over probes, only values ≥0.25
Residues (chain): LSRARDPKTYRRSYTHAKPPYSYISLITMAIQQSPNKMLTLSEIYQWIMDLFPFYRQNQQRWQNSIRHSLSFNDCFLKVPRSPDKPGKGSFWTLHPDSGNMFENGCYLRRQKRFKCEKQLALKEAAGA
CCATAATA: 0.26
TACATTAA: 0.303
AATACAGA: 0.301
TATAGTGA: 0.295
TTATACAA: 0.356
GTTACTAA: 0.279
TACTACAA: 0.321
ATTTACCA: 0.28

Set 2 — target: CCNB2, cyclin fold, Cln2 fusion (human); technique: yeast growth competition, sequencing; sample: yeast; notes: weak parent motif; reference: not given; direction: higher = stronger binding; measurement: normalised enrichment score; starting sequence: viral docking peptide; KGVKRKLFAEDSS
KGVKRTLFAEDSS [K6T]: 0.824
KGVKNKLFAEDSS [R5N]: 0.347
KGVKYKLFAEDSS [R5Y]: -0.276
KGVARKLFAEDSS [K4A]: 0.886
KGVKRKLFAEASS [D11A]: 0.96
KGVKRKLFYEDSS [A9Y]: 1.22
KGMKRKLFAEDSS [V3M]: 0.147
KGVKRKLHAEDSS [F8H]: 0.267
KGVKRKKFAEDSS [L7K]: 0.76
KGVKRDLFAEDSS [K6D]: -0.235
KGVKRKLFAEDKS [S12K]: 0.824
KGVKRKCFAEDSS [L7C]: 0.13
KGVKFKLFAEDSS [R5F]: 0.54
KGVKRKLQAEDSS [F8Q]: 0.543
KGKKRKLFAEDSS [V3K]: 0.507
KGVKRKLFAERSS [D11R]: 0.889
KGVKRKLTAEDSS [F8T]: 0.414
KGVKRKLFAIDSS [E10I]: 0.741
KGVKRKLFFEDSS [A9F]: 2
KGVKRKLFLEDSS [A9L]: 0.793
KGVKRRLFAEDSS [K6R]: 1.11
KGVKRKLFAEDWS [S12W]: 1.05
KGVKIKLFAEDSS [R5I]: 0.223
KGVKRKLFMEDSS [A9M]: 0.918
KGVKRKLFACDSS [E10C]: 0.216

Set 3 — technique: Spec-seq; molecule type: double-stranded DNA, one strand shown; sample: in vitro; tested at: not given; notes: whole probe, mean of replicates; reference: not given; direction: lower = stronger binding; measurement: relative binding energy; constant ends, left off below: GAGTCGTCTCGTCAGCAC … CCGTAGAGCACTCAGGTC
Target: POU domain, class 5, transcription factor 1, POU domain (Pou5f1, Mus musculus, UniProt P20263, residues 131-289)
Chain of UniProt P20263 (131-289, looked up): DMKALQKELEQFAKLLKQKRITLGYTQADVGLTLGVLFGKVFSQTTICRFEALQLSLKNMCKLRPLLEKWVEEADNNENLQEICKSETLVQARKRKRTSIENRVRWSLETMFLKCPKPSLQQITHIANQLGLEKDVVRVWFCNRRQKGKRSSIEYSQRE
ATGCAGAG: -0.205 ln ratio
ATGCAGGT: 0.313 ln ratio
ATGAGTAT: 0.496 ln ratio
ATGCCGTC: 0.754 ln ratio
CATGTAAT: 0.468 ln ratio
ATGCTACA: 0.343 ln ratio
ATGCCAAT: 0.358 ln ratio
CCAGTAAT: 0.836 ln ratio

Set 4 — target: inorganic phosphate, free oxyanion; technique: microfluidic competitive inhibition; sample: in vitro, cell-free expressed; tested at: not given; direction: lower = stronger binding; measurement: phosphate dissociation constant
Notes: derived from inhibition constants, unchanged parent 615000 nM
Starting sequence: PafA, mature enzyme, eGFP fusion (Elizabethkingia meningoseptica, UniProt Q9KJX5); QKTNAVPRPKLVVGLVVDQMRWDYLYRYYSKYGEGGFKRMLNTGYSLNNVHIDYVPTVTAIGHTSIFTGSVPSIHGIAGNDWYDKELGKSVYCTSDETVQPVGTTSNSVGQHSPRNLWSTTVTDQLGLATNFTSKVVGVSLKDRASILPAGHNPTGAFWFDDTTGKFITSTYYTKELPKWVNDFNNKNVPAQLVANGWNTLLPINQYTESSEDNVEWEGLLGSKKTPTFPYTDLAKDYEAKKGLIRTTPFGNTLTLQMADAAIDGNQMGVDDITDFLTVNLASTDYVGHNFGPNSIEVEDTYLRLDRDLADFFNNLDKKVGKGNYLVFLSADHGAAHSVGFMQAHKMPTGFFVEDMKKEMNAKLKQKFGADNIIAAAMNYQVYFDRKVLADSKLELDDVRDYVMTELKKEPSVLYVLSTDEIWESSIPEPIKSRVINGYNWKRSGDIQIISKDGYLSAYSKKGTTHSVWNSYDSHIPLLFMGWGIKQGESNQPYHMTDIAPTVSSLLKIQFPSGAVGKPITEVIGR
Q343V: 641 µM
V298G: 545 µM
A235G: 520 µM

Set 5 — observed: binding; technique: phage display NGS; molecule type: peptide; notes: panning round 2; reference: input library; measurement: minimum log2 enrichment ratio
Target: UDP-N-acetylglucosamine--peptide N-acetylglucosaminyltransferase 110 kDa subunit (OGT, Homo sapiens, UniProt O15294)
Chain of UniProt O15294 (whole entry, looked up): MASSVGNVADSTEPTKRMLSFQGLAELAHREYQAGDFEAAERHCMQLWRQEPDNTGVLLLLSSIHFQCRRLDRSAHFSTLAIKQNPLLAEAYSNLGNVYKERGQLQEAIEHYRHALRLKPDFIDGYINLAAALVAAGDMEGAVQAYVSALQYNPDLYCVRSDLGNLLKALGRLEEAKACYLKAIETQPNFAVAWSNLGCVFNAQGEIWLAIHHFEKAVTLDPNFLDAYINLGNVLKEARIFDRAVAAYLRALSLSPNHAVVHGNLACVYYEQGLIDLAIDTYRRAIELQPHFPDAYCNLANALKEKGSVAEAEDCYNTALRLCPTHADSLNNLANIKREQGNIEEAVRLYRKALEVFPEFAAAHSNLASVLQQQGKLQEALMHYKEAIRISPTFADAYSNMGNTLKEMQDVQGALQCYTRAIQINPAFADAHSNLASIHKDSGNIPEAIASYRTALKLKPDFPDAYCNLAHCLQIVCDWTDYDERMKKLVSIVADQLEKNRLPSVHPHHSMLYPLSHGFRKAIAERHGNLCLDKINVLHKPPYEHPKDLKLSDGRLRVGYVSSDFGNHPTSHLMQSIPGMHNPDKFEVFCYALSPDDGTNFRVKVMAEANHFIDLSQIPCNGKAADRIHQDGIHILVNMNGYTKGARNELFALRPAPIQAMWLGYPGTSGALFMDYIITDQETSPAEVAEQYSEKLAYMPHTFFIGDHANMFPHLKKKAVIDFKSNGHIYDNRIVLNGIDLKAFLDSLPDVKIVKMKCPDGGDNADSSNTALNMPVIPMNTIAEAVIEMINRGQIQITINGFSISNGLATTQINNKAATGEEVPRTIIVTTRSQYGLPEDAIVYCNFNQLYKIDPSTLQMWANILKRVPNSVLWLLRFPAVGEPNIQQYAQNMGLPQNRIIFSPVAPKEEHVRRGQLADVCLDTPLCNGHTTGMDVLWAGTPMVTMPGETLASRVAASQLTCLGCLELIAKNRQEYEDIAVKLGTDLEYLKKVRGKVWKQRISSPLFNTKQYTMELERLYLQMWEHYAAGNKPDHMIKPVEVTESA
QFLPSYQIQVDLPHY: 2.82
SIGHEQGYTYYHTHH: 1.81
NTPQYYRPYYQITVK: 2.97

Set 6 — target: CEP164, C-terminal peptide (human); technique: DHFR complementation, deep sequencing; sample: yeast; reference: wild type; direction: higher = weaker binding; measurement: binding free energy change
Notes: single substitutions, model-inferred values
Starting sequence: PDZK1, PDZ domain 2 (human); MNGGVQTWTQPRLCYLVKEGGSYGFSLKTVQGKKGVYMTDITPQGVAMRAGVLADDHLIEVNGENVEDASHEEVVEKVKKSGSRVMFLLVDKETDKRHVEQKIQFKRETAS; partner HNRVKVYRF
A110E: -0.0527 kcal/mol
H57M: -0.455 kcal/mol
P43R: 0.437 kcal/mol
D55I: 0.336 kcal/mol
E64W: 0.174 kcal/mol
R49A: 0.241 kcal/mol
N65R: 0.211 kcal/mol
V5T: -0.0766 kcal/mol

Some of these lines once more (set 1):
TACATTAA: 0.303
AATACAGA: 0.301
TATAGTGA: 0.295
TTATACAA: 0.356
GTTACTAA: 0.279
TACTACAA: 0.321
